Results gathered from unrelated publications.
Each numbered part is a random draw from the data of one study; scales do not carry over between parts. Substitutions count along the parent as printed.

Block 1
Target: Ras GTPase-activating protein-binding protein 1, full length (G3BP1, Homo sapiens, UniProt Q13283)
Sequence of UniProt Q13283 (whole entry, looked up): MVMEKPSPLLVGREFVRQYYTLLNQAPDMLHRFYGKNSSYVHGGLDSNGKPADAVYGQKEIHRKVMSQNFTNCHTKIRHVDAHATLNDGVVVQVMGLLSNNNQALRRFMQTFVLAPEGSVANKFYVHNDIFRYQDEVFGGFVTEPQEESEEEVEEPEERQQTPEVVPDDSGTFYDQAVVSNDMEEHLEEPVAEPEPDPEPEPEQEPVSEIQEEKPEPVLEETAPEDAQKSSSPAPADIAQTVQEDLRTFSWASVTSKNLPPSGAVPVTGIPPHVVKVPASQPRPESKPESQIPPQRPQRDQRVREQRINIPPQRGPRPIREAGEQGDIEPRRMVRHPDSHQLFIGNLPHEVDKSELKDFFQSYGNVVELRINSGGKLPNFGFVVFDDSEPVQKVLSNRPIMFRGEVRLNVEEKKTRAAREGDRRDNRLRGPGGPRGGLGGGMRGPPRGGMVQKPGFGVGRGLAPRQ
Method: RNA Bind-n-Seq
Molecule type: RNA
Matrix: in vitro
Tested at: 200 nM
Notes: whole 134-nt RNA, ends assumed
Added: 150 mM KCl
Reference: input library
Direction: higher = stronger binding
Shared flanks, not repeated: GGGAGUUCUACAGUCCGACGAUC … UGGAAUUCUCGGGUGUCAAGG
Oligonucleotide	log2 enrichment
CUGUGCUACACAUCGUAUGUACCGAAUCGGAAAAAAAGGGGAAAAAAAGGAAAAAAAGGGGAAAGUAUUAUGUUACGCCGUUCGGAUCUG	-0.991
UGUGCUACACAUCGUAUGUACCGAAUCGGGAAAAAAAGGGGAAAAAAAGGGAAAAAAAGGGGAAAGUAUUAUGUUACGCCGUUCGGAUCU	-0.552
CACAGACAACACGCACCCACACAGACACAGAGGGAAGGGGUUGGGAUGGGCACAGGGUGCACAGCAGGGCGGGGUAGGACCCCAGCCCCU	1.93
GUCCUGUGCUACACAUCGUAUGUACCGAAUCAAAUUUAAACCCCCCCAAAUUUUUAAAAAAGUAUUAUGUUACGCCGUUCGGAUCUGCAC	0.228
GCAGGAAGUAAAAACAAAUGGAAAUGCUUCGGAUAGUGGCAGGGGUGGGGGUUGCUAAGGAAAGGGUGGGCUGGGAGUGGGUAAAGAGUU	0.821
CAAGUCCUGUGCUACACAUCGUAUGUACCGAAUCGGGAGGGAAAGGGUUUUUGGGAAAGUAUUAUGUUACGCCGUUCGGAUCUGCACUUC	0.475
UGGGAGGUGGAUUUUGUUUAUUUUUUUAGCUCAUUUCCAGGGGUGGGAAUUUUUUUGUAAUAUGUGUCAUGAAUAAAGUUGUUUUUGAAA	0.271
UCCUGUGCUACACAUCGUAUGUACCGAAUCGGGGUUUGGGGAAAGGGGAAAAAAAGGGGAAAGUAUUAUGUUACGCCGUUCGGAUCUGCA	0.585
GCAGGAAGUAAAAACAAAUGGAAAUGCUUCGGAUAGUGGCAGGGGUGGGGGUUGCUAAGGAAAGGGUGGGAUGGGAGUGGGUAAAGAGCU	1.03

Block 2
Target: RNA binding protein fox-1 homolog 2, RRM domain, GST-SBP tag (RBFOX2, Homo sapiens, UniProt O43251-10, residues 100-194)
Method: RNA Bind-n-Seq
Molecule type: RNA
Matrix: in vitro
Tested at: 365 nM
Notes: natural RNA segment, single round, ends assumed
Reference: no-protein control
Direction: higher = stronger binding
Shared flanks, not repeated: GGGAGUUCUACAGUCCGACGAUC … UGGAAUUCUCGGGUGCCAA
Construct (chain): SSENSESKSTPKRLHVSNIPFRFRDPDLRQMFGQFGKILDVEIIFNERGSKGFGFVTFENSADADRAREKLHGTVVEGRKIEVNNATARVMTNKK
Oligonucleotide	RBNS enrichment (R)
CUGCCUCCUGAGGGUGUGGGGUUAUUAGGGUCUCAAUACUUUCUCAAGGGGCUACACUCCCCAUCAGGCAGCAUCCCACCAGCCUGCACCACAGGCUCCCCUGGGAGGAC	0.338
UCAGCUAGAGAAAGCACUGCCUCCAGUCAGAGCACAAGAGGUUGUUGAGAAAGAAACACUUUAAGGGCGGAAGGCUGGGUGGCUUCCCCGAGAACUAUGAUCUUCCUAUC	0.465
GUGGGUGGAUAUCUGCCUUCCUGCUGCAAGUGGAGGCAGGUCCAGCAGCCCCUCUUCAGAGCCCCUGUAAAUGCUAUCGCAGCCUGAGUCCUGCCGCCUUCCAGUUCCUU	0.329
GUGACUCAGCAAGGCAGUGUCAGAGCUGGGACUGGGCGUAGGCCUUUGUCCUCAUCCCCAGCACUGGCCUCCCUGUGGAAGAUGAACAUAUCCCAGCCACCUGUGUACAG	0.466
UACCCAGCACAUGAAAGACCUACAACAUGUGCUUGCCAAAGGAAUGUUAGAAUCUGCUCAUGUGUGUGUCACCAUGCCAAGCCAUGCCAGCCACAGACUGAGGCUUCCGG	0.366
GAUGGGGGGAACGGACAGAUAUUCCCAUCUUGGAGGUCAUCCAUUAGGAAUUAAAUUCUCCAGCUUCCUCUUGGCUCCUUCCUGACUUGUUAGCAGUUGCAGAUGUGACA	1.27
CUCGCCCACCCCCCAUUCUCUCCUUGGUUUCUUGGCCCUUUACUGUGGCUGUACUUCAGAUCAUCAAAGCAAGAGAAAGAAUGUGCUGAGUGUUUUCUUCCCUGUGCCUU	0.546
GUUUCUCAGCUCCCAAGGCUCUGAGCAAAUGUGGCUCCUGGGGGUUCUUUCUUCCUCUGCUGAAGGAAUAAAUUGCUCCUUGACAUUGUAGAGCUUCUGGCACUUGGAGA	0.286

Block 3
Target: CCNB1, cyclin fold, Cln2 fusion (human)
Method: yeast growth competition, sequencing
Matrix: yeast
Notes: weak parent motif
Reference: not given
Direction: higher = stronger binding
Starting sequence: ITGB3BP docking peptide (human); MPVKRSLKLDGLL
Variant	normalised enrichment score
MPVKRSAKLDGLL [L7A]	0.958
MPVKASAKLDGLL [R5A L7A]	0.152
MPVKRSLKLDGAL [L12A]	0.555
MPVKKSLKFDGLL [R5K L9F]	0.119
MPVARSLKLDGLL [K4A]	0.461
MPVKRSLKLAGLL [D10A]	0.321
MPVKKSLKLDGLL [R5K]	0.172
APVKRSLKLDGLL [M1A]	-0.135
MPVKRSLKLDGLA [L13A]	0.838
MPVKASLKLDGLL [R5A]	-0.137

Block 4
Target: TEF, bZIP domain (human)
Method: DHFR protein complementation
Matrix: yeast
Notes: single substitutions, most at no-binding floor
Reference: wild-type JUN-FOS pair
Direction: higher = stronger binding
Starting sequence: JUN, bZIP domain (human); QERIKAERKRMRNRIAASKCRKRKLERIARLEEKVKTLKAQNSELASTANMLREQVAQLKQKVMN; partner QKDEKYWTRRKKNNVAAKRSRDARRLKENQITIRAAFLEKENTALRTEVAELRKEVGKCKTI
Variant	binding fitness [natural log]
E32W	-1.49
A40R	-1.44
A29Y	-1.04
M51L	-1.51
Q55N	-1.46
A29W	-1.21
Q41D	-1.38
L38F	-1.56
V56G	-1.5
E32K	-1.51
T48K	-1.43
N42E	-1.41
L45S	-1.43
L52E	-1.49
E32R	-1.38
N42F	-1.57
E44N	-1.27
M51V	-1.32
A49Q	-1.43
N42R	-1.49
R30S	-1.26
I28N	-1.31
L52K	-1.56
K39F	-1.56
L38H	-1.57

Block 5
Target: Sal-like protein 4, full length isoform A (SALL4, Homo sapiens, UniProt Q9UJQ4, residues 1-1053)
Sequence of UniProt Q9UJQ4 (whole entry, looked up): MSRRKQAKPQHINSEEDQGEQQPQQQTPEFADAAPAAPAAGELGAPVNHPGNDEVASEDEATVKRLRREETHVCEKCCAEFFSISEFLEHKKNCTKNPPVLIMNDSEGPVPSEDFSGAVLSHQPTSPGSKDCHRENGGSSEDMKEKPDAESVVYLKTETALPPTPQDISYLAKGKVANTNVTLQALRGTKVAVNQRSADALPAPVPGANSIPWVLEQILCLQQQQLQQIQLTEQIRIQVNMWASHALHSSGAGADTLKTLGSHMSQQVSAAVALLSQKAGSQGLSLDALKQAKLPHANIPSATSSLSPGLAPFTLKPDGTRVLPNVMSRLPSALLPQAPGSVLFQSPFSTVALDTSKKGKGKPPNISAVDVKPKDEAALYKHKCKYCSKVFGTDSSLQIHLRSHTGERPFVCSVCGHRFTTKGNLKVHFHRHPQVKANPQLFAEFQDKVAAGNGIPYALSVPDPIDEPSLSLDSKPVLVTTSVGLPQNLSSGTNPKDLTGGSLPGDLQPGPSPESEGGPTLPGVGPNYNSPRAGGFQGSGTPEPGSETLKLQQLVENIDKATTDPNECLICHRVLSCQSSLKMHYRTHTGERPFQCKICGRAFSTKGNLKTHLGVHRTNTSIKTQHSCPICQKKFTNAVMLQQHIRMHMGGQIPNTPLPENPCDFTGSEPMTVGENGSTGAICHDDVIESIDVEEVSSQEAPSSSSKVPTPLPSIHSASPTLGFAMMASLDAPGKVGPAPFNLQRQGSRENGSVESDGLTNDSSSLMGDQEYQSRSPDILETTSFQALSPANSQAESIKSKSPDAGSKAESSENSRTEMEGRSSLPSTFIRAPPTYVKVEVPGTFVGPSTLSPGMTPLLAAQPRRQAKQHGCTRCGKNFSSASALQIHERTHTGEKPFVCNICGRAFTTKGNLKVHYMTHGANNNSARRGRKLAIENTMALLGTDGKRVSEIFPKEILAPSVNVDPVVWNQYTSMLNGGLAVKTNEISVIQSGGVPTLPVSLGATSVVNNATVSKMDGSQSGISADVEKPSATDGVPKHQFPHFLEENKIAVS
Method: universal PBM
Molecule type: double-stranded DNA, one strand shown
Matrix: in vitro
Tested at: 600 nM
Notes: 8-mer, flanks averaged, mean of replicates
Direction: higher = stronger binding
Oligonucleotide	E-score
ATTGGCGA	0.104
CACGAATG	0.099
TTCGAAAA	0.225
AGAAAGCC	-0.0333
ACACGATG	-0.00396
GCATAAAA	0.299
CGCATAGC	-0.106
ATGGGAAC	-0.00788
ACTAAGCC	-0.0671
CAGAGCCA	-0.125
AGTCGAAA	-0.112
GACATATC	0.201
AGTATGGA	0.217
GTACGCGA	-0.042
ATTAGATG	0.351
GTTAACCA	0.0919
GATGCCGA	-0.132

Block 6
Target: ABI1, truncated, D143A, DHFR fusion (Arabidopsis thaliana)
Method: DHFR PCA, deep sequencing
Matrix: yeast
Notes: methotrexate growth selection, single substitutions
Added: (+)-ABA 0.0091 µM
Reference: wild-type fitted maximum
Direction: higher = stronger binding
Starting sequence: PYL1, truncated, DHFR fusion (Arabidopsis thaliana); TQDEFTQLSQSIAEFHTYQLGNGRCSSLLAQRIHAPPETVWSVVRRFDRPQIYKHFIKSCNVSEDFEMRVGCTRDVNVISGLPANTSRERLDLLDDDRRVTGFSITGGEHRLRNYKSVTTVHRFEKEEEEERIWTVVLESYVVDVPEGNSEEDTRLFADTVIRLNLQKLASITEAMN; partner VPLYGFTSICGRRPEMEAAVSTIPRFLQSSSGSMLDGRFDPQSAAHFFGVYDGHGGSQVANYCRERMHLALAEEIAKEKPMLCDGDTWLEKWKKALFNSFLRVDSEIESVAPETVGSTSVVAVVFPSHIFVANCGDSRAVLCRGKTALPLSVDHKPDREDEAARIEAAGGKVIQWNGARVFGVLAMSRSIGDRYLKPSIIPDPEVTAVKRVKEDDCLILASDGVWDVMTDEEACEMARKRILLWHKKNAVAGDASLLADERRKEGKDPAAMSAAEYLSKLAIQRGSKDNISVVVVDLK
Variant	relative binding score [%]
G108Q	-5.82
L166M	-2.47
R111W	1.44
V121H	-1.67
M176K	10.2
L82H	25.5
T160L	4.48
N177A	39.8
Q7L	14.6
V43I	47.2
P37G	-4.97
R24Q	63.8
T106R	-1.29
K168H	22.2
K168S	14.1
V78Q	3.35
I162D	-1.81
R46W	-0.402
V121I	6.49

For quick reference, copied from above (block 4):
Variant	binding fitness [natural log]
A29W	-1.21
Q41D	-1.38
N42E	-1.41
K39F	-1.56
A40R	-1.44
